Experimental data collected from several papers.
Every numbered part comes from another study and shows a few of its results, in no order.
Sequence of UniProt P23458 (whole entry, looked up): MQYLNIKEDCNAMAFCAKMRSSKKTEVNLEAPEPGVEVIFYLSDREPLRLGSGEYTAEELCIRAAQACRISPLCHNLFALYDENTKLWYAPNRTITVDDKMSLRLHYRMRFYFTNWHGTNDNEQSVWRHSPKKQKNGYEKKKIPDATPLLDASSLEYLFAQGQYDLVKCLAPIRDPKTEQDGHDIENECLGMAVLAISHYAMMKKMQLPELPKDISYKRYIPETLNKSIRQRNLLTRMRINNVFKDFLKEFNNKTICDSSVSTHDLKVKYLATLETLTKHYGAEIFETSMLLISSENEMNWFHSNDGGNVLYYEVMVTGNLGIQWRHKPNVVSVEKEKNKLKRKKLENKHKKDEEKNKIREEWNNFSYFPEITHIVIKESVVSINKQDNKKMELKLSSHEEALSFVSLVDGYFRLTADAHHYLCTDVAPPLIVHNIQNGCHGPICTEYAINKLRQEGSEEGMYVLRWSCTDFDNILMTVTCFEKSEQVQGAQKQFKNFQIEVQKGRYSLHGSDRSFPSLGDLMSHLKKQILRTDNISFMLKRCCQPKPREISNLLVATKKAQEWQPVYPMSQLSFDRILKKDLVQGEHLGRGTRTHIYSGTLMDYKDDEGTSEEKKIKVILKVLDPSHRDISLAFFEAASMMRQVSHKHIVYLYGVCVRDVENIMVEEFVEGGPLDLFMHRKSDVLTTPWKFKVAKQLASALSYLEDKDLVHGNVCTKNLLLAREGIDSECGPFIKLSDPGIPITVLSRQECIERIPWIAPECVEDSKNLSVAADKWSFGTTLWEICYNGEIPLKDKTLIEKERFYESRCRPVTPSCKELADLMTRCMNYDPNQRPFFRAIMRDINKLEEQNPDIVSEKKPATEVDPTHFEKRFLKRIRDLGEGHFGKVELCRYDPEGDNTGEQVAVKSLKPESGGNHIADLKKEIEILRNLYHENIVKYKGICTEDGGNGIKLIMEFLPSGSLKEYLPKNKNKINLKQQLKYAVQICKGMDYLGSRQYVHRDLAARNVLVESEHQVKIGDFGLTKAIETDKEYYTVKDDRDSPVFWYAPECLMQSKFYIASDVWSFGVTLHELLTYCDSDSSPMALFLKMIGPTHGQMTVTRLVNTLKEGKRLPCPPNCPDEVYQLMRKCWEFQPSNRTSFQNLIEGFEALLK
Sequence of UniProt P30530 (whole entry, looked up): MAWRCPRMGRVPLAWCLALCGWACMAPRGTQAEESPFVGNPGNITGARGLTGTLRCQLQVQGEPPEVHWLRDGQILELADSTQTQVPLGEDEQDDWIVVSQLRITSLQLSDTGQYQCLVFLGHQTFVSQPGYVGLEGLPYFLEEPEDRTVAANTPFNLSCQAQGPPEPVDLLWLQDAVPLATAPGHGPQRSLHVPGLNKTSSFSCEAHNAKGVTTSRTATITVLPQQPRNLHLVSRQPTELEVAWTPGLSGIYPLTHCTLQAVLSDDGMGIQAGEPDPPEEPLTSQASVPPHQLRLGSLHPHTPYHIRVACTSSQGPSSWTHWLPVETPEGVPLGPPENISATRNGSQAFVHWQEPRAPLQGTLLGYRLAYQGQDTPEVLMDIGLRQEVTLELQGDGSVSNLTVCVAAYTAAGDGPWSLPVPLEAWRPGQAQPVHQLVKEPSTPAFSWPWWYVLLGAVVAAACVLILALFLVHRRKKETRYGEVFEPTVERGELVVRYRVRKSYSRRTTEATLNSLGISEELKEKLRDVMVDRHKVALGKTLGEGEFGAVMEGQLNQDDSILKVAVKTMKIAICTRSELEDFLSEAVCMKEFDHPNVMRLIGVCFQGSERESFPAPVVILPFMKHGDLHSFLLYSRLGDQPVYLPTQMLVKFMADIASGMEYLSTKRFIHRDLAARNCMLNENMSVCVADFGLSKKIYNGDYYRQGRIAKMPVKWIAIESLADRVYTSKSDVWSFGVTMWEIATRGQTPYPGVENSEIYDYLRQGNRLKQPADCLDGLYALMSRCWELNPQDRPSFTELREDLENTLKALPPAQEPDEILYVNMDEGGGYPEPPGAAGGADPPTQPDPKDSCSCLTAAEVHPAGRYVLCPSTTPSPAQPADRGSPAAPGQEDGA
Sequence of UniProt Q13873 (whole entry, looked up): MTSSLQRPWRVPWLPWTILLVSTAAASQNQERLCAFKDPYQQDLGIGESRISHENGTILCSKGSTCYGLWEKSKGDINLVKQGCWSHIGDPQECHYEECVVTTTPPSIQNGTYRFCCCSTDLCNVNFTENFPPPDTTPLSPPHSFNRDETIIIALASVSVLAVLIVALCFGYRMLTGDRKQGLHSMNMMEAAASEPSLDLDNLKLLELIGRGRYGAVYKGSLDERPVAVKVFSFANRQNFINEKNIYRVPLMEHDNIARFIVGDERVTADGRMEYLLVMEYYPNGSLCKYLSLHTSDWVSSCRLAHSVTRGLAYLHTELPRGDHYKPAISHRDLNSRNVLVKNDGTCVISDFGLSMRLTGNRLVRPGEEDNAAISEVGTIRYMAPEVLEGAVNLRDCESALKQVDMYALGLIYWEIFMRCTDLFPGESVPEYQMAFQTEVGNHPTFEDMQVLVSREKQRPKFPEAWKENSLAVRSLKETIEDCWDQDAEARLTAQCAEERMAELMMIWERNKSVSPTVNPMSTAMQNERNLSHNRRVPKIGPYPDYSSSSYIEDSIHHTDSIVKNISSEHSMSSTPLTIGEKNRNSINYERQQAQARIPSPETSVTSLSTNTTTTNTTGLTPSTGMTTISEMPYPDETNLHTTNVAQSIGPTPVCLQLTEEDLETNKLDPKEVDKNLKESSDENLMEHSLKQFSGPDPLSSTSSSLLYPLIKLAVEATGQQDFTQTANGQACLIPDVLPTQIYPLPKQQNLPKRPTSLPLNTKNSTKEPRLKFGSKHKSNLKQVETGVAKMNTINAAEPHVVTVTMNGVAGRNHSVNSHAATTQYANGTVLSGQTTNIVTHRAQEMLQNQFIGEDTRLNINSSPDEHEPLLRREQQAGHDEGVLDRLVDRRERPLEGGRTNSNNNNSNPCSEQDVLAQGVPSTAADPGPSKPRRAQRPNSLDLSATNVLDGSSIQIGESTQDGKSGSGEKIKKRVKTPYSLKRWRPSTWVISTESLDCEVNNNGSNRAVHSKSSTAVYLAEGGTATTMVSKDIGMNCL
Sequence of UniProt P11309 (whole entry, looked up): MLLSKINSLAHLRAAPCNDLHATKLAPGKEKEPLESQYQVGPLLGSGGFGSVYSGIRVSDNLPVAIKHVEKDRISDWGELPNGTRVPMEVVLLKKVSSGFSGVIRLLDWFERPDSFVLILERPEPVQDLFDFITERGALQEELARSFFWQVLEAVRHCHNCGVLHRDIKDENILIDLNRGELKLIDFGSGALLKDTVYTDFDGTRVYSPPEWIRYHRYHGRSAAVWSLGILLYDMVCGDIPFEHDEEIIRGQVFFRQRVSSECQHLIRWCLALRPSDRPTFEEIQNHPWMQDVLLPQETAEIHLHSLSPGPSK
Sequence of UniProt Q13153 (whole entry, looked up): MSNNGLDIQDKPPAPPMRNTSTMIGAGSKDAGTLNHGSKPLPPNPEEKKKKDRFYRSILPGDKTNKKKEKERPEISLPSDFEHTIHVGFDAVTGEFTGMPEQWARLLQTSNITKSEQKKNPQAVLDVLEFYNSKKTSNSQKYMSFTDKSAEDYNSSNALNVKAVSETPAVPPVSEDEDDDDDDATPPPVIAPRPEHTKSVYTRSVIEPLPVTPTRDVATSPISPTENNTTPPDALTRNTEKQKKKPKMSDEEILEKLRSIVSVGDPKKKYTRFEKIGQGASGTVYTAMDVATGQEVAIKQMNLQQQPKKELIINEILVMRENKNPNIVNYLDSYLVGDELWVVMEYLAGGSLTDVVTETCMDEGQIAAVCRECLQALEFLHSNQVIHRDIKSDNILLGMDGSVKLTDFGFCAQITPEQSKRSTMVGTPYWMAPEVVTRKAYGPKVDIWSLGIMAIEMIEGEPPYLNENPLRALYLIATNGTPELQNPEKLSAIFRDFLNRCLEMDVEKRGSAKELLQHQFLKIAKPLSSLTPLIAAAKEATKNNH
Sequence of UniProt Q99759 (whole entry, looked up): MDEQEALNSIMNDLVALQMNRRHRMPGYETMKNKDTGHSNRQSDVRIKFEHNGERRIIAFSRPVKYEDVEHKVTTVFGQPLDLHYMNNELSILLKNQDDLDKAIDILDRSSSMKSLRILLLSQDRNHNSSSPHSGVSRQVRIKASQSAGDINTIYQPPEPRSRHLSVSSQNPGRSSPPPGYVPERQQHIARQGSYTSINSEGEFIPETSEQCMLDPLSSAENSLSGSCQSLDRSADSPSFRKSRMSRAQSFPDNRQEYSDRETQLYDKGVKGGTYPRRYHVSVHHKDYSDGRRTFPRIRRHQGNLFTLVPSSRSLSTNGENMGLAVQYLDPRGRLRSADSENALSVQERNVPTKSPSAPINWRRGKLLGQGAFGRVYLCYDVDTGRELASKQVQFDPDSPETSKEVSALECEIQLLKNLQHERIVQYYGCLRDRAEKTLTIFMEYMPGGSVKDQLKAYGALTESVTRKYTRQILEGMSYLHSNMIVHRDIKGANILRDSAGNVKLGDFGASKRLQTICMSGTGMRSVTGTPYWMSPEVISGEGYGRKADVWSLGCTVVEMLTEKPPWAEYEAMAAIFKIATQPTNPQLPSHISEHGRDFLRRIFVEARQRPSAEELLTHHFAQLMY
Sequence of UniProt P37023 (whole entry, looked up): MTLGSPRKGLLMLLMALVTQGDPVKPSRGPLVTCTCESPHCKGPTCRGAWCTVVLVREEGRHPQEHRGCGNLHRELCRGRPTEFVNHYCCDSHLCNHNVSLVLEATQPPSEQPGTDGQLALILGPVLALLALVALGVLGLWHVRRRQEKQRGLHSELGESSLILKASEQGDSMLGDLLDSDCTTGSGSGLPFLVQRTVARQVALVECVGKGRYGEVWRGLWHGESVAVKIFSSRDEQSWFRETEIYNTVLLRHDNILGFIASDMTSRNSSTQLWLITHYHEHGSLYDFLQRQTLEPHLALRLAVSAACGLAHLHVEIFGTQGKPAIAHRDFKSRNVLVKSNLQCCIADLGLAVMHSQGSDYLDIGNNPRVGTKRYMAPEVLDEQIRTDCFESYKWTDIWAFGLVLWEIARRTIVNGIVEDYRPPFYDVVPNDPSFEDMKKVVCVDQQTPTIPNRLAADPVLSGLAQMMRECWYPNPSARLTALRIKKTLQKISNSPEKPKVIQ

Set 1 — technique: competition with immobilised ligand; concentration: 1 µM
Compound: CNC(=O)Nc1ccc2c(c1)CC[C@@]21OC(=O)N(CC(=O)N(Cc2ccc(F)cc2)[C@@H](C)C(F)(F)F)C1=O
The remaining binding was 90% (AXL (Homo sapiens, UniProt P30530); binding).
It gave 87% for remaining binding (FLT3 (Homo sapiens, UniProt P36888, D835V/ITD); cell-free assay).
The remaining binding was 58% (NEK3 (Homo sapiens, UniProt P51956); cell-free assay).
It gave 100% for remaining binding (BMPR2 (Homo sapiens, UniProt Q13873); cell-free assay).
MAP3K3 (Homo sapiens, UniProt Q99759); cell-free assay — remaining binding: 86%.

Set 2 — mode: inhibitor; concentration: 10 µM; reference: control
Target: Diamine acetyltransferase 1 (Homo sapiens, UniProt P21673)
Construct (P21673 1-171): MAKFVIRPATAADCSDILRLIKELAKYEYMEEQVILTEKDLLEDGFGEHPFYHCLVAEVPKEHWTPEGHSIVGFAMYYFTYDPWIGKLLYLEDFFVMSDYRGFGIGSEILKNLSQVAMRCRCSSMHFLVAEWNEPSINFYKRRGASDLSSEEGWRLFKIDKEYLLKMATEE
CC(=O)CCC=C(C)C gave a remaining activity of 103%.
The remaining activity of COC(=O)c1ccc(O)cc1O is reported as 112%.
O=C(O)/C=C/c1ccc(O)cc1 has a remaining activity of 90.6%.
COc1c(O)cc2occ(-c3ccc(O)cc3)c(=O)c2c1O has a remaining activity of 116%.
For COc1cc(O)c2c(=O)cc(-c3ccc(OC)c(OC)c3)oc2c1, the remaining activity was 104%.
O=C(OC[C@H]1O[C@@H](OC(=O)c2cc(O)c(O)c(OC(=O)c3cc(O)c(O)c(O)c3)c2)[C@H](OC(=O)c2cc(O)c(O)c(OC(=O)c3cc(O)c(O)c(O)c3)c2)[C@@H](OC(=O)c2cc(O)c(O)c(OC(=O)c3cc(O)c(O)c(O)c3)c2)[C@@H]1OC(=O)c1cc(O)c(O)c(OC(=O)c2cc(O)c(O)c(O)c2)c1)c1cc(O)c(O)c(OC(=O)c2cc(O)c(O)c(O)c2)c1 has a remaining activity of 103%.
For CC(=O)c1cc(O)ccc1O, the remaining activity was 94.9%.
For C[C@@H]1CCCC2=CC(=O)[C@@H]3[C@@H](C3(C)C)[C@]21C, the remaining activity was 95.8%.

Set 3 — matrix: hydrocarbon/water
For CCOC(=O)[C@@H]1CSCC(=O)N[C@H](CC)C(=O)N(CC(C)C)CC(=O)N[C@@H](CC(C)C)C(=O)N(C)[C@H](C)C(=O)N(C)[C@@H](C)C(=O)N[C@H](CC(C)C)C(=O)N(C)[C@@H](C)C(=O)N[C@@H](CC(C)C)C(=O)N1C, the logD was 1.62.
CCC[C@H]1NC(=O)[C@H](CC(C)C)NC(=O)[C@H](Cc2ccc(O)cc2)NC(=O)[C@H]2CCCN2C(=O)[C@H](CC2CCCCC2)NC(=O)[C@H](CC2CCCCC2)NC1=O gave a logD of 1.69.
CCOC(=O)[C@@H]1CSCC(=O)N[C@H](CC)C(=O)N(C)[C@@H](C)C(=O)N[C@H](CC(C)C)C(=O)N2CCC[C@H]2C(=O)N(CC(C)C)CC(=O)N[C@H](CC(C)C)C(=O)N(C)[C@@H](C)C(=O)N[C@@H](CC(C)C)C(=O)N1C has a logD of 2.02.
With CC(C)C[C@@H]1NC(=O)CN(CCCOC(C)C)C(=O)[C@H](C)NC(=O)[C@H](CC(C)C)N(C)C(=O)[C@H]2CCCN2C(=O)[C@H](C)NC(=O)CN(CC2CCOCC2)C(=O)[C@H](C)NC(=O)[C@H](CC(C)C)N(C)C(=O)[C@H]2CCCN2C1=O the logD was 0.353.
For CC(C)C[C@@H]1NC(=O)[C@H](Cc2ccc(O)cc2)NC(=O)[C@H]2CCCN2C(=O)[C@H](CC(C)C)NC(=O)[C@H](CC2CCCCC2)NC(=O)[C@@H](CC(C)C)NC1=O, the logD was 1.04.
CCC[C@H]1C(=O)N[C@@H](CC)C(=O)N(C)[C@@H](C)C(=O)N[C@@H](CC(C)C)C(=O)N(C)Cc2cn(nn2)CC(=O)N[C@@H](CC(C)C)C(=O)N(C)[C@@H](C)C(=O)N[C@@H](CC(C)C)C(=O)N2CCC[C@@H]2C(=O)N1C gave a logD of -0.503.

Set 4 — observed: enzyme activity; mode: inhibitor; concentration: 0.5 µM
SMILES: Cc1nc(Nc2ncc(C(=O)Nc3c(C)cccc3Cl)s2)cc(N2CCN(CCO)CC2)n1
CSNK1E (Homo sapiens, UniProt P49674); reference: control — remaining activity: 89.5%.
PIM1 (Homo sapiens, UniProt P11309); reference: control — remaining activity: 102%.
The remaining activity was 15.9% (ACVRL1 (Homo sapiens, UniProt P37023); reference: control).
The remaining activity was 81.4% (MELK (Homo sapiens, UniProt Q14680); reference: control).
The remaining activity was 97.3% (PRKCQ (Homo sapiens, UniProt Q04759); reference: control).
It gave 99.7% for remaining activity (CAMKK1 (Homo sapiens, UniProt Q8N5S9); reference: control).
For JAK2 (Homo sapiens, UniProt O60674); reference: control: remaining activity read 98.1%.
For FES (Homo sapiens, UniProt P07332); reference: control: remaining activity read 110%.
The remaining activity was 102% (PAK1 (Homo sapiens, UniProt Q13153); reference: control).
It gave 84.1% for remaining activity (CSNK1D (Homo sapiens, UniProt P48730); reference: control).
For PAK5 (Homo sapiens, UniProt Q9P286); reference: control: remaining activity read 91.1%.
It gave 2.74% for remaining activity (ABL2 (Homo sapiens, UniProt P42684)).
For MARK1 (Homo sapiens, UniProt Q9P0L2); reference: control: remaining activity read 107%.
The remaining activity was 107% (SGK2 (Homo sapiens, UniProt Q9HBY8); reference: control).
TEC (Homo sapiens, UniProt P42680); reference: control — remaining activity: 11.3%.
It gave 1.91% for remaining activity (SIK2 (Homo sapiens, UniProt Q9H0K1); reference: control).
It gave 101% for remaining activity (SRPK1 (Homo sapiens, UniProt Q96SB4); reference: control).
PAK4 (Homo sapiens, UniProt O96013); reference: control — remaining activity: 98.7%.
For JAK1 (Homo sapiens, UniProt P23458); reference: control: remaining activity read 101%.

Further values, each from its own experiment
C[C@@H]1CN(c2ccc(-c3cc(C(=O)NCCOCCOCCOCCOCCNC(=O)/C=C/c4[nH]cc(C(=O)N[C@@H](CC(N)=O)c5ccc(F)c(Cl)c5)c4-c4ccc(Cl)cc4F)ccc3F)cc2NC(=O)c2c[nH]c(=O)cc2C(F)(F)F)C[C@H](C)N1C: “dissociation rate constant” 0.0091 s⁻¹ (DDB1- and CUL4-associated factor 1 (DCAF1, Homo sapiens, UniProt Q9Y4B6); SPR).
